# Assay results of several laboratories.
# Protocols differ between the studies behind these lines. ± gives the spread as reported.
Structure (SMILES),assay,test system,conditions,tissue uptake
CC(C)[C@H](NC(=O)[C@@H]1CCCN1C(=O)[C@H](CCCNC(=N)N)NC(=O)[C@H](CS)NC(=O)[C@H](Cc1c[nH]c2ccccc12)NC(=O)[C@H](CCCNC(=N)N)NC(=O)[C@@H](Cc1ccccc1)NC(=O)[C@H](Cc1c[nH]cn1)NC(=O)[C@H](CCC(=O)O)NC(=O)[C@H](CS)NC(=O)[C@H](CS)NC(=O)CNC(=O)[C@@H]1CC(=O)N[C@@H](CCCNC(=N)N)C(=O)NCC(=O)N[C@@H](CC(=O)O)C(=O)N[C@H](Cc2ccc(O)cc2)C(=O)N1)C(N)=O [technetium-99m labelled],,"C57 mice B16/F1 melanoma female, spleen","iv, 2 h, added: NDP-MSH 10 µg co-injected",1.28 ± 0.68 %ID/g
O=C(NCC1OC2CCC=CCCC2O1)c1ccc([18F])nc1 (centres unmarked),,"female BALB/c nude mice, liver","intravenous, 10 min",17.1 ± 6.9 %ID/g
O=C([O-])c1cccc(CN(CCN(Cc2cn(Cc3ccccc3)nn2)Cc2cccc(C(=O)[O-])n2)Cc2cn(Cc3ccccc3)nn2)n1.[64Cu+2],,"healthy athymic nude mice, heart","intravenous, 1 h",2.91 %ID/g
CCCC[C@H](NC(=O)CN1CCC(NC(=O)CN2CCN(CC(=O)O)CCN(CC(=O)O)CCN(CC(=O)O)CC2)CC1)C(=O)N[C@H]1CC(=O)NCCCC[C@@H](C(N)=O)NC(=O)[C@H](Cc2c[nH]c3ccccc23)NC(=O)[C@H](CCCNC(=N)N)NC(=O)[C@@H](Cc2ccccc2)NC(=O)[C@H](Cc2c[nH]cn2)NC1=O [gallium-68 labelled],,"male C57BL/6J mice, B16-F10 tumours, liver","intravenous, 1 h, blocking study, added: 100 µg non-radioactive Ga-peptide",1.4 ± 0.6 %ID/g
CN1C(=O)[C@@H](Cc2ccc(O)c(I)c2)NC(=O)CNC(=O)[C@H](Cc2ccc3ccccc3c2)NC(=O)[C@H](CCCNC(=N)N)NC(=O)[C@H]1CCCNC(=O)c1ccc(CNC(=O)CN2CCN(CC(=O)O)CCN(CC(=O)O)CCN(CC(=O)O)CC2)cc1 [lutetium-177 labelled],refers to: 177Lu radioactivity,"female CB-17 SCID mice, Daudi xenograft, adrenals","intravenous, 0.16 nmol per mouse, 1 h",1.5 ± 0.6 %ID/g
O=C([O-])CN1CCN(CC(=O)[O-])CCN(CC(=O)[O-])CCN(CC(=O)[O-])CC1.[64Cu+2],,"healthy athymic nude mice, skin","intravenous, 1 h",0.4 %ID/g
CC(C)[C@H](NC(=O)[C@@H]1CCCN1C(=O)[C@H](CCCNC(=N)N)NC(=O)[C@H](CS)NC(=O)[C@H](Cc1c[nH]c2ccccc12)NC(=O)[C@H](CCCNC(=N)N)NC(=O)[C@@H](Cc1ccccc1)NC(=O)[C@H](Cc1c[nH]cn1)NC(=O)[C@H](CCC(=O)O)NC(=O)[C@H](CS)NC(=O)[C@H](CS)NC(=O)[C@@H]1CC(=O)N[C@@H](CCCNC(=N)N)C(=O)NCC(=O)N[C@@H](CC(=O)O)C(=O)N[C@H](Cc2ccc(O)cc2)C(=O)N1)C(N)=O [technetium-99m labelled],,"C57 mice B16/F1 melanoma female, kidneys","iv, 0.037 MBq, 2 h",23.9 ± 1.45 %ID/g
CCCC[C@H](NC(=O)CNC(=O)CNC(=O)CN1CCN(CC(=O)O)CCN(CC(=O)O)CCN(CC(=O)O)CC1)C(=O)N[C@H]1CC(=O)NCCCC[C@@H](C(N)=O)NC(=O)[C@H](Cc2c[nH]c3ccccc23)NC(=O)[C@H](CCCNC(=N)N)NC(=O)[C@@H](Cc2ccccc2)NC(=O)[C@H](Cc2c[nH]cn2)NC1=O [gallium-67 labelled],,"C57 mice, female, B16/F1 melanoma, intestines","intravenous, 0.037 MBq, 24 h",0.46 ± 0.06 %ID
NC12CNCCNCC(NCc3ccc(CNC(=O)CCCC(=O)NCc4ccc(-c5nncnn5)cc4)cc3)(CNCCNC1)CNCCNC2.[64Cu+2],,"athymic nude mice, SW1222 xenograft, small intestine with contents","1 h, pretargeting with huA33-TCO, 24 h interval",0.88 ± 0.09 %ID/g
CCCC[C@H](NC(=O)CNC(=O)CNC(=O)CN1CCN(CC(=O)O)CCN(CC(=O)O)CC1)C(=O)N[C@H]1CC(=O)NCCCC[C@@H](C(N)=O)NC(=O)[C@H](Cc2c[nH]c3ccccc23)NC(=O)[C@H](CCCNC(=N)N)NC(=O)[C@@H](Cc2ccccc2)NC(=O)[C@H](Cc2c[nH]cn2)NC1=O [gallium-67 labelled],,"female C57 mice, B16/F1 melanoma, kidneys","intravenous, 0.037 MBq, 4 h",7.58 ± 2.7 %ID/g
CCCC[C@@H]1NC(=O)[C@@H](NC(=O)[C@H](CCC(=O)O)NC(=O)CNC(=O)CN2CCN(CC(=O)O)CCN(CC(=O)O)CCN(CC(=O)O)CC2)CCCCNC(=O)C[C@@H](C(N)=O)NC(=O)[C@H](C(C)C)NC(=O)[C@@H]2CCCN2C(=O)[C@H](CCCNC(=N)N)NC(=O)CNC(=O)[C@H](Cc2c[nH]c3ccccc23)NC(=O)[C@H](CCCNC(=N)N)NC(=O)[C@@H](Cc2ccccc2)NC(=O)[C@H](Cc2c[nH]cn2)NC(=O)[C@H](CCC(=O)O)NC1=O [gallium-67 labelled],,"normal C57 mice, brain","intravenous, 0.037 MBq/mouse, 2 h",0.01 ± 0.01 %ID/g

# Repeated from above:
Structure (SMILES),assay,test system,conditions,tissue uptake
CC(C)[C@H](NC(=O)[C@@H]1CCCN1C(=O)[C@H](CCCNC(=N)N)NC(=O)[C@H](CS)NC(=O)[C@H](Cc1c[nH]c2ccccc12)NC(=O)[C@H](CCCNC(=N)N)NC(=O)[C@@H](Cc1ccccc1)NC(=O)[C@H](Cc1c[nH]cn1)NC(=O)[C@H](CCC(=O)O)NC(=O)[C@H](CS)NC(=O)[C@H](CS)NC(=O)CNC(=O)[C@@H]1CC(=O)N[C@@H](CCCNC(=N)N)C(=O)NCC(=O)N[C@@H](CC(=O)O)C(=O)N[C@H](Cc2ccc(O)cc2)C(=O)N1)C(N)=O [technetium-99m labelled],,"C57 mice B16/F1 melanoma female, spleen","iv, 2 h, added: NDP-MSH 10 µg co-injected",1.28 ± 0.68 %ID/g
